Measurements pooled from the literature.
Each line is one published result; not all experiments were run side by side. “And” joins repeats or separate records; there may be more than shown. ± gives the spread as reported.
FGFR1: Fibroblast growth factor receptor 1 (FGFR1, Homo sapiens, UniProt P11362)
Sequence of UniProt P11362 (whole entry, looked up): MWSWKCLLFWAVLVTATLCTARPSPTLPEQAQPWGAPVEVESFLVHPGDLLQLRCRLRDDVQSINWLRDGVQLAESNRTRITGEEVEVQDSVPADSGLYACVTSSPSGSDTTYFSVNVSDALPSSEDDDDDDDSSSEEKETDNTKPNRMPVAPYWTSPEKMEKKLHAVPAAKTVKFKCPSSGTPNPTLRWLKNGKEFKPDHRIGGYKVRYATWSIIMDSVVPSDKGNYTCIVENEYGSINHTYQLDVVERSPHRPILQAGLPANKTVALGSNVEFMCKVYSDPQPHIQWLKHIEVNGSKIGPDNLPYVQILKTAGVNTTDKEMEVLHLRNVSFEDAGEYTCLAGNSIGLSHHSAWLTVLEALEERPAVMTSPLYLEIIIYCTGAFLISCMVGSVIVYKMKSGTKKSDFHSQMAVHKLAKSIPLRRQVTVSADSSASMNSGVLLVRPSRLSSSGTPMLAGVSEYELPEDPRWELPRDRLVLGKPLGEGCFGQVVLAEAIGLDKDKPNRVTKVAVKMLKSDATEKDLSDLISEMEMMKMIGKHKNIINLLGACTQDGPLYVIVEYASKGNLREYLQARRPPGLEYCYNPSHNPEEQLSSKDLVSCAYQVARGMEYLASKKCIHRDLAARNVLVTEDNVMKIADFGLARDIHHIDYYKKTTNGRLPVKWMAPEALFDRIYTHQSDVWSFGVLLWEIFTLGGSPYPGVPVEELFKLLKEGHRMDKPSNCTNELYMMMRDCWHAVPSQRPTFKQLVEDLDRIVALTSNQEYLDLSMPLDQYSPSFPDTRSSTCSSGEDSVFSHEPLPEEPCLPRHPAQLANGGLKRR
SYK: Tyrosine-protein kinase SYK (SYK, Homo sapiens, UniProt P43405)
PPIA: Peptidyl-prolyl cis-trans isomerase A (PPIA, Homo sapiens, UniProt P62937)
Sequence of UniProt P62937 (whole entry, looked up): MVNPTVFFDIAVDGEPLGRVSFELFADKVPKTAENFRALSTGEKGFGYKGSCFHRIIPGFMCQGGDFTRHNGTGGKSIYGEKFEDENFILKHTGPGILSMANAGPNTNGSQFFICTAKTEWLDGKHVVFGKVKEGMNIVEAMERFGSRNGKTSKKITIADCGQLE
MEP cytidylyltransferase IspD: MEP cytidylyltransferase IspD (Plasmodium falciparum, UniProt Q8I273)
TDO2: Tryptophan 2,3-dioxygenase (TDO2, Homo sapiens, UniProt P48775)
Sequence of UniProt Q15303 (whole entry, looked up): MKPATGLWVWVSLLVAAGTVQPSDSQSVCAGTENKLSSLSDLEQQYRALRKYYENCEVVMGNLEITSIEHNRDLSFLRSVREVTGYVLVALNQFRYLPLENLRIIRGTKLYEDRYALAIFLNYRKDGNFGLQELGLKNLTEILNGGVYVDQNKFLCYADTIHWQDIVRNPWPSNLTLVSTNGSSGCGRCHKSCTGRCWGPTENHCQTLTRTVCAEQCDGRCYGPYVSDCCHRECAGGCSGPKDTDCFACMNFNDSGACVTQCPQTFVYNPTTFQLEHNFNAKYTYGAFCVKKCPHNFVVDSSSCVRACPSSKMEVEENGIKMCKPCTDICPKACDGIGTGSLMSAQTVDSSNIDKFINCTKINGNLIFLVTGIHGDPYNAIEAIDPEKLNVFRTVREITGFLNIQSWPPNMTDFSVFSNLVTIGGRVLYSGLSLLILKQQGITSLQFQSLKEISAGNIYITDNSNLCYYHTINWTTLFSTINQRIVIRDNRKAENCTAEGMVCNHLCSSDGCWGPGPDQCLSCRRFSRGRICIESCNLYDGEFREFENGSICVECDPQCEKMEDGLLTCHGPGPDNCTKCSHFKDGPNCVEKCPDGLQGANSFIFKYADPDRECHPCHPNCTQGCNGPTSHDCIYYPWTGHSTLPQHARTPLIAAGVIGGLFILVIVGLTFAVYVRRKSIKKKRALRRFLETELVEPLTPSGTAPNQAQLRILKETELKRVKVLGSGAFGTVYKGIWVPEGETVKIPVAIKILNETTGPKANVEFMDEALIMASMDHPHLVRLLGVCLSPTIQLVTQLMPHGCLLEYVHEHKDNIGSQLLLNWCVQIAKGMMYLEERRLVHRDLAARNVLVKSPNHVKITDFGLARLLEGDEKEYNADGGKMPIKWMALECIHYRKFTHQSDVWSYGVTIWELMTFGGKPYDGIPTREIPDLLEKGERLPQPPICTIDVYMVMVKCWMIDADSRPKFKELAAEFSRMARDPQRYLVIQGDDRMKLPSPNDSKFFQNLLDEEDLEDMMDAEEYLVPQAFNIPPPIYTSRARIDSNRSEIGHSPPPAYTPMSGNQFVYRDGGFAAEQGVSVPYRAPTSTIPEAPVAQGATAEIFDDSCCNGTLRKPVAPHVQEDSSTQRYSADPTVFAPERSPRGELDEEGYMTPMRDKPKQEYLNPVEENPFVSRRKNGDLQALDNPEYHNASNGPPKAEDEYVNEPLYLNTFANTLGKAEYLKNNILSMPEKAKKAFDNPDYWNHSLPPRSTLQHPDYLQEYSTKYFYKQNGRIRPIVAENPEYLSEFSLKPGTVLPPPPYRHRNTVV
Sequence of UniProt P48775 (whole entry, looked up): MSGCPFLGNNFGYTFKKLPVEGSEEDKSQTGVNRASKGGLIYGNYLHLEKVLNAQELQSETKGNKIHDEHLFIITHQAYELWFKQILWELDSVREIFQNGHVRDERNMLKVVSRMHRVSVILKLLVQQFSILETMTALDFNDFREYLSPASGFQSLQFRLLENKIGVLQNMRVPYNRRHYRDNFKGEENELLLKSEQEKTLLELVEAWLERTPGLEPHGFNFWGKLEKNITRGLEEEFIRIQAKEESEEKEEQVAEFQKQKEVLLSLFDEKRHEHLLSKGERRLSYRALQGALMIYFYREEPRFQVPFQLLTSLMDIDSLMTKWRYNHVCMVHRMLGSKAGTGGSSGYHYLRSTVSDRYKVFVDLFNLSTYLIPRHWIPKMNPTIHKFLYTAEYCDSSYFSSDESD
Sequence of UniProt Q92843 (whole entry, looked up): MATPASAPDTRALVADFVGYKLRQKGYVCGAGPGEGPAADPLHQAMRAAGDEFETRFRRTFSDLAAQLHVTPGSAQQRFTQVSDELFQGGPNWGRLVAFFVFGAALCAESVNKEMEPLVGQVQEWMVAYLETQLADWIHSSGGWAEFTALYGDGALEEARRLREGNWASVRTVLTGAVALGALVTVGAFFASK
Sequence of UniProt P48546 (whole entry, looked up): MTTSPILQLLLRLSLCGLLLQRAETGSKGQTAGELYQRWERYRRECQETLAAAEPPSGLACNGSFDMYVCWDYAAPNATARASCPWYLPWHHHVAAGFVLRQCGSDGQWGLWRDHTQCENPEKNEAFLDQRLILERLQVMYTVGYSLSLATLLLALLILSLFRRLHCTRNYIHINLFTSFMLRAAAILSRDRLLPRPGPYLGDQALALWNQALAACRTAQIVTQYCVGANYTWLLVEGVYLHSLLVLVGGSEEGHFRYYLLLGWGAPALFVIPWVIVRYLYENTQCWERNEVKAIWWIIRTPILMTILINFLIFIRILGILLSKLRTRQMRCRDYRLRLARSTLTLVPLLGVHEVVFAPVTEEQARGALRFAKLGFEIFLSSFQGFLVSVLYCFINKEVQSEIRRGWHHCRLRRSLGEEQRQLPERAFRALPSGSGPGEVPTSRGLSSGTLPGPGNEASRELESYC
Sequence of UniProt P29317 (whole entry, looked up): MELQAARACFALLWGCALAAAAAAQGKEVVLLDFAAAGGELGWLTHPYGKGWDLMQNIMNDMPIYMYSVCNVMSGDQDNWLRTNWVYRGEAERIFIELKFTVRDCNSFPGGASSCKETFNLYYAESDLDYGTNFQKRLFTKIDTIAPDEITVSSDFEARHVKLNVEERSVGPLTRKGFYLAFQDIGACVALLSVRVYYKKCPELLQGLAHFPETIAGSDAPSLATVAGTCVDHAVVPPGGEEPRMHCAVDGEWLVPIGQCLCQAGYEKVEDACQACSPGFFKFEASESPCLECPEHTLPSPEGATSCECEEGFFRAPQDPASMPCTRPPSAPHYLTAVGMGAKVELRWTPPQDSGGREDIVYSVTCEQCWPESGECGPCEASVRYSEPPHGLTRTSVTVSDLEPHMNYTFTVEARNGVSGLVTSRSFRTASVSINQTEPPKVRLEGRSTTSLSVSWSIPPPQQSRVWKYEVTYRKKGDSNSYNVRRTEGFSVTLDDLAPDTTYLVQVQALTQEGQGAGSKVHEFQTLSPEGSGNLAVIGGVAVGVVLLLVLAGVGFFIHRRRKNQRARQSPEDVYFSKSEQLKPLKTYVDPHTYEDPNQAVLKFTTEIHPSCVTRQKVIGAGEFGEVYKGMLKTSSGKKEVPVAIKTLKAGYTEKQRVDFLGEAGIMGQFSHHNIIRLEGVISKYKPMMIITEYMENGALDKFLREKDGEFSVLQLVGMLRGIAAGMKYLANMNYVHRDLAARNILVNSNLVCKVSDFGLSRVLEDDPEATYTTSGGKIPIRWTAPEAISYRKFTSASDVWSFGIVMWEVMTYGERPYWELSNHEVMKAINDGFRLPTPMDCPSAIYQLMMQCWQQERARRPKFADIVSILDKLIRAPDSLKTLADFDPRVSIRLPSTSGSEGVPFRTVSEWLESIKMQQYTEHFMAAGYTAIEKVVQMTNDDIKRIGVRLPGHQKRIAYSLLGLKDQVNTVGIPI
Sequence of UniProt P35354 (whole entry, looked up): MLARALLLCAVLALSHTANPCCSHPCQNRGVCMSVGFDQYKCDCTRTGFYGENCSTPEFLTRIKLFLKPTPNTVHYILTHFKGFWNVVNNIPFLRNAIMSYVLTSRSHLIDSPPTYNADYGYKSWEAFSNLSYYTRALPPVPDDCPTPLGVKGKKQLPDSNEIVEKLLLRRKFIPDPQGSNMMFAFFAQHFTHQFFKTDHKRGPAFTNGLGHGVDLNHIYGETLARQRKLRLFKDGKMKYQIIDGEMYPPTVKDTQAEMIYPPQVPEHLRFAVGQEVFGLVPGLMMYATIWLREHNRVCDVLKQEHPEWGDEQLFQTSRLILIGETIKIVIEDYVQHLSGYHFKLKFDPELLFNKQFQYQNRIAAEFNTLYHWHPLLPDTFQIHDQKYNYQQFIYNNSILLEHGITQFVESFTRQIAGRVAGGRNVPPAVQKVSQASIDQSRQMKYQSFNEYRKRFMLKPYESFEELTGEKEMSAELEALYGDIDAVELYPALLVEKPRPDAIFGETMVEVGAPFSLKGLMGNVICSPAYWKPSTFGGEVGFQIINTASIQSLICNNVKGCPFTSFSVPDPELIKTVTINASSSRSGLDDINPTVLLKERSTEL

`Cc1ccc2oc(-c3c4c(N)n[nH]c(=O)c4nn3-c3ccc(NC(=O)/C=C/CN(C)C)cc3)c(C)c2c1` has an IC50 of > 1 µM (Ephrin type-A receptor 2 (EPHA2, Homo sapiens, UniProt P29317); enzyme activity, inhibitor, ELISA).
`CCN(CC)CCNC(=O)c1cc2c(Oc3ccc(NC(=S)NC4CC4)c(Cl)c3)ccnc2cc1OC` gave an IC50 of 8.26 µM (FGFR1).
For `CN(C(=O)c1ccn2ncc(-c3ccc(C(N)=O)cc3)c2c1)c1ccc(C#N)cn1`, the IC50 was > 10 µM (SYK; enzyme activity, inhibitor).
`CCCN(CC(=O)N(CCC)CC(=O)N(CCC)CC(=O)N(CC(N)=O)Cc1cn(CCCNC(=O)CCCOc2cccc(-c3nc4ccc(-c5nc6ccc(N7CCN(C)CC7)cc6[nH]5)cc4[nH]3)c2)nn1)C(=O)CNCc1cn(CCCNC(=O)CCCOc2cccc(-c3nc4ccc(-c5nc6ccc(N7CCN(C)CC7)cc6[nH]5)cc4[nH]3)c2)nn1` has an IC50 of 18 ± 4 µM (MBNL1–r(CUG)109 complex; MBNL1 displacement; added: bulk yeast tRNA competitor).
`O=C1Nc2ccc(Cl)cc2C1=Cc1ccc(-c2cccc(C(=O)NCC3CCNCC3)c2)o1` (mixture of isomers) has an IC50 of 0.429 µM (Serine/threonine-protein kinase pim-2 (PIM2, Homo sapiens, UniProt Q9P1W9); enzyme activity, inhibitor).
With `Cc1noc(NS(=O)(=O)c2ccc(NC(=O)c3ccnc(-c4cccc(Br)c4)c3)cc2)c1C` the IC50 was 2.48 µM (PPIA; enzyme activity, inhibitor).
`CO[C@H]1CN(c2ccc(C(N)=O)nn2)CC[C@H]1NC(=O)c1[nH]c(C)c(Cl)c1Cl` has an IC50 of 0.397 µM (DNA gyrase subunit B (Staphylococcus aureus, UniProt P0A0K8); enzyme activity, inhibitor, ADP detection).
`CC[C@H](C)[C@H](NC(=O)[C@H](CO)NC(=O)[C@H](Cc1ccc(O)cc1)NC(=O)[C@H](CC(=O)O)NC(=O)[C@H](CO)NC(=O)[C@@H](NC(=O)[C@H](Cc1ccccc1)NC(=O)[C@@H](NC(=O)CNC(=O)[C@@H]1CCCN1C(=O)[C@H](C)NC(=O)[C@@H](N)Cc1ccc(O)cc1)[C@@H](C)O)[C@@H](C)CC)C(=O)N[C@@H](C)C(=O)N[C@@H](CCSC)C(=O)N[C@@H](CC(=O)O)C(=O)N[C@@H](CCCCN)C(=O)N[C@H](C(=O)N[C@@H](Cc1c[nH]cn1)C(=O)N[C@@H](CCC(N)=O)C(=O)N[C@@H](CCC(N)=O)C(=O)N[C@@H](CC(=O)O)C(=O)N[C@@H](Cc1ccccc1)C(=O)N[C@H](C(=O)N[C@@H](CC(N)=O)C(=O)N[C@@H](Cc1c[nH]c2ccccc12)C(=O)N[C@@H](CC(C)C)C(=O)N[C@@H](CC(C)C)C(=O)N[C@@H](C)C(=O)N[C@@H](CCC(N)=O)C(=O)N[C@@H](CCCCN)C(=O)NCC(=O)N[C@@H](CCCCN)C(=O)N[C@@H](CCCCN)C(=O)N[C@@H](CC(N)=O)C(=O)N[C@@H](CC(=O)O)C(=O)N[C@@H](Cc1c[nH]c2ccccc12)C(=O)N[C@@H](CCCCN)C(=O)N[C@@H](Cc1c[nH]cn1)C(=O)N[C@@H](CC(N)=O)C(=O)N[C@H](C(=O)N[C@H](C(=O)N[C@@H](CCC(N)=O)C(=O)O)[C@@H](C)O)[C@@H](C)CC)C(C)C)[C@@H](C)CC` gave an IC50 of 0.01 µM (Gastric inhibitory polypeptide receptor (GIPR, Homo sapiens, UniProt P48546); ligand displacement in cells, radioligand).
For `COc1cc(Oc2ccnc3cc(OC)c(C(N)=O)cc23)ccc1NC(=S)NC1CC1`, the IC50 was 3.14 µM (FGFR1).
With `Cc1cccc2c1N(C(=O)CSc1ccc(C(F)(F)F)cn1)CCC2` the IC50 was 2 µM (Transient receptor potential cation channel subfamily V member 3 (TRPV3, Homo sapiens, UniProt Q8NET8); calcium flux, inhibitor; HEK293 overexpressing target; 30 min preincubation, added: drofenine 200 µM).
`O=C(O)c1ccccc1-c1c2ccc(=O)cc-2oc2cc(O)ccc12` has an IC50 of > 100 µM (Ubiquitin-conjugating enzyme E2 B, with Rad18 (Homo sapiens, UniProt P63146); Rad6-Rad18 ubiquitination activity, inhibitor, AlphaScreen).
With `Cc1cc2c(NC(=O)N[C@@H]3CC(C)(C)Oc4cc(C(F)(F)F)ccc43)cccc2cn1` the IC50 was 0.0209 µM (Transient receptor potential cation channel subfamily V member 1 (Trpv1, Rattus norvegicus, UniProt O35433); calcium signal, antagonist, fluorescence).
For `Cc1ccc(-c2csc(N/N=C(/C=C/c3ccc(Cl)cc3)C(=O)O)n2)cc1`, the IC50 was 48.2 µM (Dihydrofolate reductase (DHFR, Homo sapiens, UniProt P00374); enzyme activity, inhibitor).
For `O=C(C[C@H](Cc1ccc(O)cc1)n1cc(CNS(=O)(=O)c2ccc(-c3ccccc3)s2)nn1)NO`, the IC50 was 3 µM (Endoplasmic reticulum aminopeptidase 2 (ERAP2, Homo sapiens, UniProt Q6P179); enzyme activity, inhibitor, fluorescence).
`CC(C)(C)OC(=O)Nc1ccc(-c2cc(C(=O)NCCCCCCC(=O)NO)no2)cc1` has an IC50 of 0.165 µM (HDAC (Lucilia cuprina egg nuclear extract); enzyme activity, inhibitor, fluorometric).
`CC(C)CCC[C@@H](C)[C@H]1CC[C@H]2[C@@H]3CC=C4C[C@@H](OS(=O)(=O)O)CC[C@]4(C)[C@H]3CC[C@]12C` gave an IC50 of 84.9 µM (Plasminogen (PLG, Homo sapiens, UniProt P00747); enzyme activity, inhibitor, absorbance; pH 7.4).
The IC50 of `Cc1ccc(CNC(=O)[C@H](CCc2ccccc2)NC(=O)[C@H](CCc2ccccc2)NC(=O)[C@@H](N)Cc2ccncc2)cc1` is reported as 0.00924 µM (20S proteasome (Plasmodium falciparum, UniProt A0A5K1K7U1+Q8IJT1); β5 activity, inhibitor; added: Suc-LLVY-AMC, PA28α-activated).
The IC50 of `Cc1ccc([C@H]2N[C@H](C(=O)O)Cc3c2[nH]c2ccccc32)c(C)c1` is reported as ~1 µM (MEP cytidylyltransferase IspD; enzyme activity, inhibitor, fluorimetric pyrophosphate; 60 nM enzyme).
For `Cc1ccc(-n2nc(C3CC3)nc2C2CCCN(C(N)=O)C2)cc1C` (stereo not drawn), the IC50 was 42.8 µM (Aromatase (CYP19A1, Homo sapiens, UniProt P11511); enzyme activity, inhibitor, fluorescence).
`N=C(N)SCc1ccc(CSC(=N)N)cc1` gave an IC50 of > 30 µM (TDO2; added: L-tryptophan 2 mM).
The IC50 of `C#Cc1cccc(Nc2ncnc3cc(OC)c(OCCCN4CCOCC4)cc23)c1` is reported as 0.012 µM and 0.011 µM (Receptor tyrosine-protein kinase erbB-4 (ERBB4, Homo sapiens, UniProt Q15303); kinase activity, inhibitor; added: ATP 80.8 µM).
The IC50 of `N#Cc1cnc(Nc2nc3ccccc3o2)nc1-c1ccc(Br)cc1` is reported as 4.12 µM (Metabotropic glutamate receptor 5 (Grm5, Rattus norvegicus, UniProt P31424); calcium signal, antagonist).
With `O=C(O)[C@@H]1Cc2c([nH]c3ccccc23)[C@@H](c2ccc(F)cc2I)N1` the IC50 was 0.14 ± 0.07 µM (MEP cytidylyltransferase IspD; enzyme activity, inhibitor, fluorimetric pyrophosphate; 60 nM enzyme).
For `[N-]=[N+]=N[C@H]1C[C@H](n2cnc3c(N)ncnc32)O[C@@H]1COP(=O)(O)OP(=O)(O)OP(=O)(O)O`, the IC50 was 40 µM (Telomerase reverse transcriptase (TERT, Homo sapiens, UniProt O14746); enzyme activity, inhibitor, stretch PCR; added: competing dNTP 10 µM).
The IC50 of `O=c1cc(-c2cccc(O)c2)oc2ccc3ccccc3c12` is reported as 18.7 µM (Kynurenine 3-monooxygenase (KMO, Homo sapiens, UniProt O15229); enzyme activity, inhibitor, absorbance).
The IC50 of `CCCCCCCc1ccc(S(=O)(=O)N2CC2C(=O)OC)cc1` (stereo not drawn) is reported as 0.07 µM (Protein disulfide-isomerase (P4HB, Homo sapiens, UniProt P07237); enzyme activity, inhibitor, absorbance; pH 7.6).
`COc1cc2nccc(Oc3ccc(NC(=S)NCc4ccccn4)c(Cl)c3)c2cc1C(N)=O` has an IC50 of 2.75 µM (FGFR1).
For `CC(=O)NC(c1ccccc1)(c1ccccc1)c1ccccc1Cl`, IC50 read “no effect” (Gap junction alpha-8 protein (Gja8, Mus musculus, UniProt P28236); gap junction channel current, inhibitor, dual whole-cell voltage clamp; N2a transfected with Cx50).
`NCCO[C@H]1[C@H](O)[C@@H](O)[C@@H]2O[C@@H]2[C@@H]1C(=O)O` has an IC50 of > 100 µM (Heparanase (HPSE, Homo sapiens, UniProt Q9Y251); enzyme activity, inhibitor; pH 5, with preincubation).
For `CC(C)(C)NCCCNC(=O)c1ccnc(Br)c1`, the IC50 was > 100 µM (Lethal(3)malignant brain tumor-like protein 3 (Homo sapiens, UniProt Q96JM7); methyl-lysine reader binding, inhibitor, AlphaScreen).
`CC(=O)c1c(O)c2ccc3ccccc3c2oc1=O` has an IC50 of > 100 µM (SYK; enzyme activity, inhibitor, ADP detection).
For `COCCNC(=O)c1cc2c(Oc3ccc(NC(=S)NC4CC4)c(Cl)c3)ccnc2cc1OC`, the IC50 was 4.24 µM (FGFR1).
`NNC(=S)Nc1cccc([N+](=O)[O-])c1` gave an IC50 of 3400 ± 800 µM (Urea transporter 1 (Slc14a1, Rattus norvegicus, UniProt P97689); urea transport, inhibitor; rat erythrocytes; 15 min).
For `Cc1cc(C)c(CNC(=O)c2c(O)c(O)cc3c(O)c(-c4c(C)cc5c(C(=O)NCc6c(C)cc(C)cc6C)c(O)c(O)cc5c4O)c(C)cc23)c(C)c1`, the IC50 was ~1 µM (Bcl-2-like protein 2 (BCL2L2, Homo sapiens, UniProt Q92843); ligand displacement, FP).
`CCN(c1ccccc1)c1nc(Cl)nc2[nH]ncc12` has an IC50 of 237 µM (TDO2; inhibitor; added: L-tryptophan 400 µM).
`CC(=O)OCC1C=C(C2(C)CCCCC2)CCC1COC(C)=O` (single isomer, unassigned; (+)) has an IC50 of > 10 µM (PPIA; enzyme activity, inhibitor).
For `Cc1ccc(O)c(C(=O)Nc2ccc(CN)cc2)c1`, the IC50 was 40.5 µM (Transmembrane protease serine 2 (TMPRSS2, Homo sapiens, UniProt O15393); enzyme activity, inhibitor, fluorescence; with preincubation).
For `Cc1cccc(/N=c2\oc3ccccc3cc2-c2ccccc2)c1`, the IC50 was 0.0102 µM (Prostaglandin G/H synthase 2 (PTGS2, Homo sapiens, UniProt P35354); enzyme activity, inhibitor).
The IC50 of `O=C(Nc1ccc(Cl)c(NCc2cccnc2)c1)c1ccc(Cl)c(C(F)(F)F)c1` is reported as 0.187 µM (Epithelial discoidin domain-containing receptor 1 (DDR1, Homo sapiens, UniProt Q08345); enzyme activity, inhibitor, mobility shift).

For quick reference, copied from above:
With `Cc1cc2c(NC(=O)N[C@@H]3CC(C)(C)Oc4cc(C(F)(F)F)ccc43)cccc2cn1` the IC50 was 0.0209 µM (Transient receptor potential cation channel subfamily V member 1 (Trpv1, Rattus norvegicus, UniProt O35433); calcium signal, antagonist, fluorescence).
`CC(C)(C)OC(=O)Nc1ccc(-c2cc(C(=O)NCCCCCCC(=O)NO)no2)cc1` has an IC50 of 0.165 µM (HDAC (Lucilia cuprina egg nuclear extract); enzyme activity, inhibitor, fluorometric).
For `Cc1ccc(O)c(C(=O)Nc2ccc(CN)cc2)c1`, the IC50 was 40.5 µM (Transmembrane protease serine 2 (TMPRSS2, Homo sapiens, UniProt O15393); enzyme activity, inhibitor, fluorescence; with preincubation).
For `COc1cc(Oc2ccnc3cc(OC)c(C(N)=O)cc23)ccc1NC(=S)NC1CC1`, the IC50 was 3.14 µM (FGFR1).
With `O=C(O)[C@@H]1Cc2c([nH]c3ccccc23)[C@@H](c2ccc(F)cc2I)N1` the IC50 was 0.14 ± 0.07 µM (MEP cytidylyltransferase IspD; enzyme activity, inhibitor, fluorimetric pyrophosphate; 60 nM enzyme).
